Measured values from different studies.
Every numbered part comes from another study and shows a few of its results, in no order. “And” joins repeats or separate records; there may be more than shown.

Sample 1 — mode: degrader; time: 24 h
Structure (SMILES): C[C@@H]1CN(c2ccc(-c3cc(C(=O)NCCOCCOCCOCCOCCNC(=O)/C=C/c4[nH]cc(C(=O)N[C@@H](CC(N)=O)c5ccc(F)c(Cl)c5)c4-c4ccc(Cl)cc4F)ccc3F)cc2NC(=O)c2c[nH]c(=O)cc2C(F)(F)F)C[C@H](C)N1C
WDR5/DCAF1: WDR5/DCAF1 (Homo sapiens, UniProt P61964+Q9Y4B6)
WDR5: WD repeat-containing protein 5 (WDR5, Homo sapiens, UniProt P61964)
target	assay	conditions	scale	remaining protein level
WDR5/DCAF1	HiBiT luminescence	34.2 nM	–	106% and 92.8% and 93.2%
WDR5	Jess capillary immunoassay, measured: WDR5 over vinculin	4270 nM	baseline: DMSO	52.5% and 69.5% and 49% and 78.2% and 92% and 52.1%
WDR5/DCAF1	HiBiT luminescence	88.1 nM	–	100% and 92.8% and 101%
WDR5	Jess capillary immunoassay, measured: WDR5 over vinculin	11 nM	baseline: DMSO	109% and 87.5% and 89.5% and 93.5% and 91.9% and 106%
WDR5	Jess capillary immunoassay, measured: WDR5 over vinculin	331 nM	baseline: DMSO	63.6% and 54.1% and 59.6% and 93.2% and 72.5% and 90%
WDR5/DCAF1	HiBiT luminescence	5.15 nM	–	102% and 109% and 107%
WDR5/DCAF1	HiBiT luminescence	1510 nM	–	63.8% and 66.8% and 74.6%
WDR5/DCAF1	HiBiT luminescence	2 nM	–	110% and 95.9% and 107%

Sample 2 — Structure (SMILES): COc1cc2ncc(-c3ccccc3)nc2cc1OC; observed: enzyme activity; mode: inhibitor; tested at: 0.5 µM; baseline: control
target	remaining activity [%]
STK16 (Homo sapiens, UniProt O75716)	93.5
SRMS (Homo sapiens, UniProt Q9H3Y6)	102
RPS6KA6 (Homo sapiens, UniProt Q9UK32)	98.5
RPS6KA5 (Homo sapiens, UniProt O75582)	91.8
EPHB1 (Homo sapiens, UniProt P54762)	92.8
HIPK2 (Homo sapiens, UniProt Q9H2X6)	78.7
CAMK2B (Homo sapiens, UniProt Q13554)	93.3
EPHB4 (Homo sapiens, UniProt P54760)	86.4
EPHA4 (Homo sapiens, UniProt P54764)	99.3
AXL (Homo sapiens, UniProt P30530)	95.2
PRKACG (Homo sapiens, UniProt P22612)	87.6
HIPK4 (Homo sapiens, UniProt Q8NE63)	86.4
Cyclin-dependent kinase 1, with cyclin B (CDK1, Homo sapiens, UniProt P06493)	105
BLK (Homo sapiens, UniProt P51451)	103
PDPK1 (Homo sapiens, UniProt O15530)	92.6
STK17A (Homo sapiens, UniProt Q9UEE5)	95.5
PHKG1 (Homo sapiens, UniProt Q16816)	92.4
TSSK2 (Homo sapiens, UniProt Q96PF2)	85.7
MAPKAPK3 (Homo sapiens, UniProt Q16644)	86.7
MAP4K4 (Homo sapiens, UniProt O95819)	62.1
Cyclin-dependent kinase 4, with cyclin D3 (CDK4, Homo sapiens, UniProt P11802)	97.5
WNK3 (Homo sapiens, UniProt Q9BYP7)	97.5
Cyclin-dependent kinase 6, with cyclin D3 (CDK6, Homo sapiens, UniProt Q00534)	93.7

Sample 3 — organism: Sarcocystis neurona; observed: parasite activity; tested at: concentration not given
SMILES	activity class
O=C(O[C@@H]1Cc2c(O)cc(O)cc2O[C@@H]1c1cc(O)c(O)c(O)c1)c1cc(O)c(O)c(O)c1	inactive
CN1CCN(c2c(F)cc3c(=O)c(C(=O)O)cn4c3c2SCC4)CC1.Cl	inactive
Nc1ccc2cn[nH]c2c1	inactive
Cl.NC(N)=NC(=O)c1nc(Cl)c(N)nc1N.O	inactive
Cc1cccc(CCN2CCC(C(=O)c3ccc(NS(C)(=O)=O)cc3)CC2)n1.Cl.Cl	inactive
C[C@]12CCC(=O)C=C1CC[C@@H]1[C@@H]2[C@@H](O)C[C@@]2(C)[C@H]1CC[C@]2(O)C(=O)COC(=O)CCC(=O)O	inactive
CC(C)c1ccc2c(c1)c(SC(C)(C)C)c(CC(C)(C)C(=O)O)n2Cc1ccc(Cl)cc1	inactive
CN[C@@H]1[C@H](O)[C@H](NC)[C@H]2O[C@@]3(O)C(=O)C[C@@H](C)O[C@H]3O[C@@H]2[C@H]1O.Cl.Cl	inactive
CN1CCc2cc(Cl)c(O)cc2[C@@H](c2ccccc2)C1.Cl	inactive
COc1ccc(C(=O)NCc2ccc(OCCN(C)C)cc2)cc1OC.Cl	inactive
CC[C@@H](CO)NCCN[C@@H](CC)CO	inactive
Cc1onc(-c2ccccc2)c1C(=O)N[C@@H]1C(=O)N2[C@@H]1SC(C)(C)[C@@H]2C(=O)O	inactive
O=C1c2c(O)cc(O)cc2OC(c2ccc(O)c(O)c2)C1O (centres unmarked)	inactive
CN1C(=O)CC[C@H]1c1cccnc1	inactive
COc1ccc(CN2CCN(C(c3ccc(F)cc3)c3ccc(F)cc3)CC2)c(OC)c1OC.Cl.Cl	inactive
CC(=O)CCCCn1cnc2c1c(=O)n(C)c(=O)n2C	inactive

Sample 4 — method: competition with immobilised ligand; tested at: 1 µM
SMILES: O=C(N[C@H]1CCCCC/C=C\C2C[C@@]2(C(=O)O)NC(=O)[C@@H]2C[C@@H](Oc3ccncc3)CN2C1=O)OC1CCCC1 (some centres unmarked)
target	assay	remaining binding
KIT (Homo sapiens, UniProt P10721, L576P)	binding	91%
DAPK3 (Homo sapiens, UniProt O43293)	binding	100%
SBK1 (Homo sapiens, UniProt Q52WX2)	binding	100%
EGFR (Homo sapiens, UniProt P00533, T790M)	cell-free assay	91%
EGFR (Homo sapiens, UniProt P00533, del747-750/T751S)	cell-free assay	49%
STK38 (Homo sapiens, UniProt Q15208)	binding	97%
MAP3K15 (Homo sapiens, UniProt Q6ZN16)	binding	68%
CSNK2A2 (Homo sapiens, UniProt P19784)	cell-free assay	100%
MAP4K5 (Homo sapiens, UniProt Q9Y4K4)	binding	100%
NEK7 (Homo sapiens, UniProt Q8TDX7)	binding	100%
MAP3K13 (Homo sapiens, UniProt O43283)	binding	100%
ACVR2A (Homo sapiens, UniProt P27037)	binding	96%
BMPR2 (Homo sapiens, UniProt Q13873)	cell-free assay	100%
VRK2 (Homo sapiens, UniProt Q86Y07)	binding	100%
PIM3 (Homo sapiens, UniProt Q86V86)	binding	100%
MAP3K7 (Homo sapiens, UniProt O43318)	binding	77%
MYLK4 (Homo sapiens, UniProt Q86YV6)	cell-free assay	100%
CSNK1D (Homo sapiens, UniProt P48730)	cell-free assay	81%
WNK1 (Homo sapiens, UniProt Q9H4A3)	binding	90%
MET (Homo sapiens, UniProt P08581, Y1235D)	cell-free assay	81%
RIOK2 (Homo sapiens, UniProt Q9BVS4)	binding	100%
